Published values of several laboratories.
Protocols differ between the studies behind these lines. Numbers after ± are the reported error.

With `CC(C)C[C@@H](NC(=O)[C@@H](CC(C)C)NC(=O)[C@@H](CC(=O)O)NC(=O)[C@@H](CC(C)C)NC(=O)[C@@H](CC(C)C)NC(=O)[C@@H](CC(C)C)NC(=O)[C@H](NC(=O)[C@@H](CC(=O)O)NC(=O)[C@H](NC(=O)[C@H]1CCCN1C(=O)[C@@H](Cc1ccccc1)NC(=O)[C@@H](CC(C)C)NC(=O)[C@@H](CC(C)C)NC(=O)[C@@H](CC(=O)O)NC(=O)[C@@H](CC(C)C)NC(=O)[C@@H](Cc1ccc(O)cc1)NC(=O)[C@@H](C)NC(=O)[C@@H](CCCNC(=N)N)NC(=O)[C@@H](Cc1c[nH]c2ccccc12)NC(=O)[C@H]1CCCN1C(=O)[C@@H](CC(N)=O)NC(=O)[C@@H](CCC(N)=O)NC(=O)[C@@H](CC(=O)O)NC(=O)[C@@H](CC(=O)O)NC(=O)[C@@H](CSC1CC(=O)N(CCNC(=O)CN2CCN(CC(=O)O)CCN(CC(=O)O)CC2)C1=O)NC(=O)[C@@H](C)N)[C@H](C)O)[C@H](C)O)C(=O)N[C@H](Cc1c[nH]c2ccccc12)C(=O)O` (some centres unmarked) [copper-64 labelled] the tumour-to-muscle ratio was 6 ± 2 (male nude mice, LNCaP xenograft; intravenous, 4 h; baseline: tumour over muscle).
`C[C@H](NC(=O)CNC(=O)[C@H](CCC(=O)O)NC(=O)[C@H](CCC(=O)O)NC(=O)[C@H](CC(=O)O)NC(=O)[C@@H]1CCCN1C(=O)[C@H](Cc1ccccc1)NC(=O)[C@H](CS)NC(=O)[C@H](Cc1ccc(O)cc1)NC(=O)CCCNC(=O)CNC(=O)CNC(=O)[C@@H](C)NC(=O)CN)C(=O)N[C@@H](CS)C(=O)N[C@@H](Cc1ccc(O)cc1)C(N)=O` [technetium-99m labelled] gave a radiochemical purity of 97.39 ± 0.23% (paper chromatography; sealed vial; 0 h, room temperature).
`COc1ccc2cc([C@H](C)C(=O)NCCCC[C@@H](NC(=O)[C@@H](Cc3ccccc3)NC(=O)[C@H](N)Cc3ccccc3)C(=O)O)ccc2c1` has a nanofiber width of 26 ± 3 nm (TEM; hydrogel 0.8 wt%).
`Cc1cc(-c2ccc(NC(=O)[C@H](CCCCNC(=O)CCOCCOCCC(=O)N[C@H](Cc3ccccc3)C(=O)N[C@H]3CSSC[C@@H](C(=O)N[C@H](C(=O)O)[C@@H](C)O)NC(=O)[C@H]([C@@H](C)O)NC(=O)[C@H](CCCCN)NC(=O)[C@@H](Cc4c[nH]c5ccccc45)NC(=O)[C@H](Cc4ccc(O)cc4)NC3=O)NC(=O)CN3CCN(CC(=O)O)CCN(CC(=O)O)CCN(CC(=O)O)CC3)c(C)c2)ccc1N=Nc1ccc2c(S(=O)(=O)O)cc(S(=O)(=O)O)c(N)c2c1O` [lutetium-177 labelled] — result for “grade 2 asthenia incidence”: 8% (human metastatic neuroendocrine tumour; dose not given).
The tissue uptake of `N=C(N)NCCC[C@@H]1NC(=O)[C@H](CCCCNC(=O)CC[C@H](NC(=O)CC[C@H](NC(=O)CN2CCN(CC(=O)O)CCN(CC(=O)O)CCN(CC(=O)O)CC2)C(=O)N[C@@H](CCC(=O)NCCCC[C@@H]2NC(=O)[C@@H](Cc3ccccc3)NC(=O)[C@H](CC(=O)O)NC(=O)CNC(=O)[C@H](CCCNC(=N)N)NC2=O)C(=O)NCCCC[C@@H]2NC(=O)[C@@H](Cc3ccccc3)NC(=O)[C@H](CC(=O)O)NC(=O)CNC(=O)[C@H](CCCNC(=N)N)NC2=O)C(=O)NCCCC[C@@H]2NC(=O)[C@@H](Cc3ccccc3)NC(=O)[C@H](CC(=O)O)NC(=O)CNC(=O)[C@H](CCCNC(=N)N)NC2=O)NC(=O)[C@@H](Cc2ccccc2)NC(=O)[C@H](CC(=O)O)NC(=O)CNC1=O` [indium-111 labelled] is reported as 3.16 ± 0.43 %ID/g (female athymic nu/nu mice, U87MG tumour; intravenous, 111 kBq, 72 h).
With `CCCC[C@H](NC(=O)CNC(=O)CNC(=O)CN1CCN(CC(=O)O)CCN(CC(=O)O)CCN(CC(=O)O)CC1)C(=O)N[C@H]1CC(=O)NCCCC[C@@H](C(N)=O)NC(=O)[C@H](Cc2c[nH]c3ccccc23)NC(=O)[C@H](CCCNC(=N)N)NC(=O)[C@@H](Cc2ccccc2)NC(=O)[C@H](Cc2c[nH]cn2)NC1=O` [lutetium-177 labelled] the tissue uptake was 0.53 ± 0.08 %ID/g (C57 mouse, female, liver; intravenous, 0.037 MBq, 24 h).
`N=C(N)NCCC[C@@H]1NC(=O)[C@H](CCCCNC(=O)CNC(=O)CNC(=O)CNC(=O)CC[C@H](NC(=O)CNC(=O)CNC(=O)CNC(=O)CN2CCN(CC(=O)O)CCN(CC(=O)O)CCN(CC(=O)O)CC2)C(=O)NCC(=O)NCC(=O)NCC(=O)NCCCC[C@@H]2NC(=O)[C@@H](Cc3ccccc3)NC(=O)[C@H](CC(=O)O)NC(=O)CNC(=O)[C@H](CCCNC(=N)N)NC2=O)NC(=O)[C@@H](Cc2ccccc2)NC(=O)[C@H](CC(=O)O)NC(=O)CNC1=O` [indium-111 labelled] has a tissue uptake of 1.63 ± 0.08 %ID/g (female athymic nu/nu mice, spleen; intravenous, 111 kBq, 0.5 h).
`CC(C)C[C@@H]1NC(=O)[C@H]([C@@H](C)O)NC(=O)[C@H](Cc2ccccc2)NC(=O)CNC(=O)[C@H](Cc2c[nH]c3ccccc23)NC(=O)[C@H](Cc2c[nH]cn2)NC(=O)[C@H](C)NC(=O)[C@@H](NC(=O)[C@H](CCCCNC(=O)CCCCCN2C(=CC=C3CCCC(C=CC4=[N+](CCCCS(=O)(=O)[O-])c5ccc(S(=O)(=O)O)cc5C4(C)C)=C3Oc3ccc(S(=O)(=O)O)cc3)C(C)(C)c3cc(S(=O)(=O)O)ccc32)NC(=O)CN2CCN(CC(=O)O)CCN(CC(=O)O)CCN(CC(=O)O)CC2)CCCCNC(=O)C[C@@H](C(N)=O)NC1=O` [gallium-68 labelled]: “molar extinction coefficient” 108000 ± 7920 M⁻¹ cm⁻¹ (sodium acetate; pH 4).
`CCCC[C@H](NC(=O)CCCCCCCNC(=O)CN1CCN(CC(=O)O)CCN(CC(=O)O)CC1)C(=O)N[C@H]1CC(=O)NCCCC[C@@H](C(N)=O)NC(=O)[C@H](Cc2c[nH]c3ccccc23)NC(=O)[C@H](CCCNC(=N)N)NC(=O)[C@@H](Cc2ccccc2)NC(=O)[C@H](Cc2c[nH]cn2)NC1=O` [copper-64 labelled] has a tissue uptake of 0.08 ± 0.1 %ID/g (C57 mice, bone; intravenous, 0.37 MBq, 4 h).
`N=C(N)NCCC[C@@H]1NC(=O)[C@H](CCCCNC(=O)CNC(=O)CNC(=O)CNC(=O)CC[C@H](NC(=O)CNC(=O)CNC(=O)CNC(=O)CC[C@H](NC(=O)CN2CCN(CC(=O)O)CCN(CC(=O)O)CCN(CC(=O)O)CC2)C(=O)NCC(=O)NCC(=O)NCC(=O)N[C@@H](CCC(=O)NCC(=O)NCC(=O)NCC(=O)NCCCC[C@@H]2NC(=O)[C@@H](Cc3ccccc3)NC(=O)[C@H](CC(=O)O)NC(=O)CNC(=O)[C@H](CCCNC(=N)N)NC2=O)C(=O)NCC(=O)NCC(=O)NCC(=O)NCCCC[C@@H]2NC(=O)[C@@H](Cc3ccccc3)NC(=O)[C@H](CC(=O)O)NC(=O)CNC(=O)[C@H](CCCNC(=N)N)NC2=O)C(=O)NCC(=O)NCC(=O)NCC(=O)NCCCC[C@@H]2NC(=O)[C@@H](Cc3ccccc3)NC(=O)[C@H](CC(=O)O)NC(=O)CNC(=O)[C@H](CCCNC(=N)N)NC2=O)NC(=O)[C@@H](Cc2ccccc2)NC(=O)[C@H](CC(=O)O)NC(=O)CNC1=O` [indium-111 labelled] gave a tissue uptake of 0.8 ± 0.22 %ID/g (female athymic nu/nu mice, heart; intravenous, 24 h).
The tissue uptake of `CCCC[C@H](NC(=O)CNC(=O)CNC(=O)CN1CCN(CC(=O)O)CCN(CC(=O)O)CC1)C(=O)N[C@H]1CC(=O)NCCCC[C@@H](C(N)=O)NC(=O)[C@H](Cc2c[nH]c3ccccc23)NC(=O)[C@H](CCCNC(=N)N)NC(=O)[C@@H](Cc2ccccc2)NC(=O)[C@H](Cc2c[nH]cn2)NC1=O` [technetium-99m labelled] is reported as 0.82 ± 0.41 %ID/g (C57 mouse, bone; iv, 0.037 MBq, 0.5 h).

For quick reference, copied from above:
With `CC(C)C[C@@H](NC(=O)[C@@H](CC(C)C)NC(=O)[C@@H](CC(=O)O)NC(=O)[C@@H](CC(C)C)NC(=O)[C@@H](CC(C)C)NC(=O)[C@@H](CC(C)C)NC(=O)[C@H](NC(=O)[C@@H](CC(=O)O)NC(=O)[C@H](NC(=O)[C@H]1CCCN1C(=O)[C@@H](Cc1ccccc1)NC(=O)[C@@H](CC(C)C)NC(=O)[C@@H](CC(C)C)NC(=O)[C@@H](CC(=O)O)NC(=O)[C@@H](CC(C)C)NC(=O)[C@@H](Cc1ccc(O)cc1)NC(=O)[C@@H](C)NC(=O)[C@@H](CCCNC(=N)N)NC(=O)[C@@H](Cc1c[nH]c2ccccc12)NC(=O)[C@H]1CCCN1C(=O)[C@@H](CC(N)=O)NC(=O)[C@@H](CCC(N)=O)NC(=O)[C@@H](CC(=O)O)NC(=O)[C@@H](CC(=O)O)NC(=O)[C@@H](CSC1CC(=O)N(CCNC(=O)CN2CCN(CC(=O)O)CCN(CC(=O)O)CC2)C1=O)NC(=O)[C@@H](C)N)[C@H](C)O)[C@H](C)O)C(=O)N[C@H](Cc1c[nH]c2ccccc12)C(=O)O` (some centres unmarked) [copper-64 labelled] the tumour-to-muscle ratio was 6 ± 2 (male nude mice, LNCaP xenograft; intravenous, 4 h; baseline: tumour over muscle).
